Published values gathered from unrelated publications.
Protocols differ between the studies behind these lines. Several values in a cell are separate wells, animals, samples, runs or records. Numbers after ± are the reported error. In brackets after ≈: the same amount, converted by molar mass.

The inhibition of `NC(=O)c1cccc(NC(=O)c2cc(-c3ccc(Br)cc3)n(-c3ccccc3)n2)c1` is reported as over 60% (Dengue virus; viral replication, inhibitor, imaging; Vero, DENV2; 12.5 µM).
`CCCCCCCCCC(=O)N[C@@H](Cc1c[nH]c2ccccc12)C(=O)N[C@H](CC(N)=O)C(=O)N[C@@H](CC(=O)O)C(=O)N[C@@H]1C(=O)NCC(=O)N[C@@H](CCCNC(=O)OC2/C=C/CCCCC2)C(=O)N[C@@H](CC(=O)O)C(=O)N[C@H](C)C(=O)N[C@@H](CC(=O)O)C(=O)NCC(=O)N[C@H](CO)C(=O)N[C@@H]([C@H](C)CC(=O)O)C(=O)N[C@@H](CC(=O)c2ccccc2N)C(=O)O[C@@H]1C` (some centres unmarked): “peak heat flow” 0 µW (Staphylococcus aureus; planktonic bacterial growth, isothermal microcalorimetry; MRSA; 3.0 µg/mL, 24 h, 37 °C).
`CN(C(=O)[C@H](Cc1ccccc1)NC(=O)Cc1c[nH]c2ccc(O)cc12)c1ccc(Cl)cc1` has an EC50 of 60 ± 8 nM (human immunodeficiency virus 1; viral replication; NL4-3 with subtype AG gag/pol).
With `c1ccc2c(Cc3c(-c4c[nH]c5ccccc45)[nH]c4ccccc34)c[nH]c2c1` the IC50 was over 50000 nM (Clostridioides difficile; microbial growth, absorbance).
`C=C(NC(=O)c1csc(-c2nc3c(cc2O)-c2nc(cs2)C(=O)NC(C(C)O)C(=O)NC(=C(C)OC)c2nc(cs2)C(=O)NC2c4nc(cs4)C(=O)NC(COC(=O)c4c5c6c(cccc6n4O)COC(=O)C(OC4CC(C)(O)C(N(C)C)C(C)O4)C2OC5)c2nc-3cs2)n1)C(N)=O` (centres unmarked) has a post-antibiotic effect of 1.29 ± 0.29 h (Staphylococcus aureus; ATCC 43300 MRSA; 2 x MIC, 2 h exposure).
For `COC1C=COC2(C)Oc3c(C)c(O)c4c(c3C2=O)C2=NC3(CCN(CC(C)C)CC3)NC2=C(NC(=O)C(C)=CC=CC(C)C(O)C(C)C(O)C(C)C(OC(=O)Nc2cnccn2)C1C)C4=O` (centres unmarked), the MBC was 1.3 µM (≈ 1.2 µg/mL) (Mycobacteroides abscessus; ATCC 19977, caseum surrogate; 5 d, non-replicating).
`CN(Cc1ccc(C2(C(F)(F)F)CCC2)cc1)Cc1cccc2ccccc12` has an inhibition zone of 25.5 mm (Trichophyton mentagrophytes; microbial growth, disc diffusion; ATCC18748; 0.032 µg/mL, 72 h).
`C=C[C@]1(C)C[C@@H](OC(=O)CSc2ccc(NC(=O)c3ccco3)cc2)[C@]2(C)[C@H](C)CC[C@]3(CCC(=O)[C@H]32)[C@@H](C)[C@@H]1O` — result for “lung mycoplasma load reduction”: 1.27 log10 CFU/mL and 0.931 log10 CFU/mL and 0.479 log10 CFU/mL and 1.24 log10 CFU/mL and 1.78 log10 CFU/mL and 2.14 log10 CFU/mL and 1.06 log10 CFU/mL (Mycoplasma gallisepticum; infected chickens, lung; intramuscular, 30 mg/kg daily x3, 72 h; baseline: 0 h).
`CC(C)(C)NCC(SS(=O)(=O)O)c1ccccc1` (centres unmarked): “spleen weight decrease” 23% (Schistosoma mansoni; perfusion day 52; infected Swiss Webster mice; 600 mg/kg single dose, 1248 h, dosed day 7 post-infection; baseline: vehicle control).
`c1ccc(CN2CCOCCOCCN(CCCCCCCCCCCCN3CCOCCOCCN(CCCCCCCCCCCCN4CCOCCOCCN(Cc5ccccc5)CCOCCOCC4)CCOCCOCC3)CCOCCOCC2)cc1` gave an FIC index of 0.57 (Klebsiella pneumoniae; ATCC BAA-2146; 2.5 µM, added: tetracycline).
The parasitaemia of `Cc1cc(N2CC[C@@](C#N)(C3(C)CC3)C2=O)cc(C(=O)NCc2cc(F)cc(-c3cnn(C)c3)c2)n1` is reported as 1.44% (Plasmodium falciparum; Pf3D70087/N9, humanized SCID mouse; 10 mg/kg, 4-day test, day 5 post-infection).
For `N=C(N)NCCC[C@@H]1NC(=O)[C@H](CCCNC(=N)N)NC(=O)[C@@H](C(c2ccccc2)c2ccccc2)NC(=O)[C@H](Cc2c[nH]c3ccccc23)NC(=O)[C@@H](C(c2ccccc2)c2ccccc2)NC(=O)[C@@H](CCCNC(=N)N)NC(=O)[C@@H](CCCNC(=N)N)NC1=O`, “biofilm mass reduction” read 59% (Candida albicans; ATCC 60193; 2 x MIC, 24 h, preformed biofilm).
`CCCCNCCO.O=C(O)C(Cl)Cl` has a herbicidal inhibition of 0% (Xanthium sibiricum; 15 mg/mL, 21 days, post-emergence, greenhouse).
`Cc1cccc2c1N(C(=O)n1ccnn1)CC2` has a germination rate of 80.6% and 73.8% and 0% and 3.7% and 78.1% and 75.7% (Arabidopsis thaliana; wild type, seeds; 3 µM, high ambient temperature).

Some of these lines once more:
`C=C(NC(=O)c1csc(-c2nc3c(cc2O)-c2nc(cs2)C(=O)NC(C(C)O)C(=O)NC(=C(C)OC)c2nc(cs2)C(=O)NC2c4nc(cs4)C(=O)NC(COC(=O)c4c5c6c(cccc6n4O)COC(=O)C(OC4CC(C)(O)C(N(C)C)C(C)O4)C2OC5)c2nc-3cs2)n1)C(N)=O` (centres unmarked) has a post-antibiotic effect of 1.29 ± 0.29 h (Staphylococcus aureus; ATCC 43300 MRSA; 2 x MIC, 2 h exposure).
`C=C[C@]1(C)C[C@@H](OC(=O)CSc2ccc(NC(=O)c3ccco3)cc2)[C@]2(C)[C@H](C)CC[C@]3(CCC(=O)[C@H]32)[C@@H](C)[C@@H]1O` — result for “lung mycoplasma load reduction”: 1.27 log10 CFU/mL and 0.931 log10 CFU/mL and 0.479 log10 CFU/mL and 1.24 log10 CFU/mL and 1.78 log10 CFU/mL and 2.14 log10 CFU/mL and 1.06 log10 CFU/mL (Mycoplasma gallisepticum; infected chickens, lung; intramuscular, 30 mg/kg daily x3, 72 h; baseline: 0 h).
